Measured values from different studies.
Each numbered part is a random draw from the data of one study; scales do not carry over between parts. Changes are numbered by the printed parent chain.

Study 1 — target: CCND3, cyclin fold, Cln2 fusion (human); method: yeast growth competition, sequencing; sample: yeast; notes: weak parent motif; reference: not given; reading: higher = stronger binding; parent: viral docking peptide; YKVKRRLVFGADD
Variant	normalised enrichment score
AKVKRRLVFGADD [Y1A]	0.0721
YKVKRRLVFGARD [D12R]	0.0342
YKVPRRLVFGADD [K4P]	0.0937
YKVKRRLVFGLDD [A11L]	0.205
YSVKRRLVFGADD [K2S]	-0.0801
YKVKRRQVFGADD [L7Q]	-0.0683
YKVKRLLVFGADD [R6L]	0.583
YKVKRRLVAGADD [F9A]	-0.0341
YKVKRRLGFGADD [V8G]	0.367
YPVKRRLVFGADD [K2P]	0.426
YKVFRRLVFGADD [K4F]	0.203
YKVKRRLVFGGDD [A11G]	0.295
YKVKRRLVDGADD [F9D]	0.341
YKVKSRLVFGADD [R5S]	0.0793

Study 2 — method: EMSA with sequencing; molecule type: double-stranded DNA, one strand shown; sample: in vitro; tested at: 10 and 20 nM; reference: negative control set to 0; reading: higher = stronger binding
Target: Hepatocyte nuclear factor 3-alpha (Foxa1, Mus musculus, UniProt P35582, residues 1-468, full length assumed)
Sequence of UniProt P35582 (whole entry, looked up): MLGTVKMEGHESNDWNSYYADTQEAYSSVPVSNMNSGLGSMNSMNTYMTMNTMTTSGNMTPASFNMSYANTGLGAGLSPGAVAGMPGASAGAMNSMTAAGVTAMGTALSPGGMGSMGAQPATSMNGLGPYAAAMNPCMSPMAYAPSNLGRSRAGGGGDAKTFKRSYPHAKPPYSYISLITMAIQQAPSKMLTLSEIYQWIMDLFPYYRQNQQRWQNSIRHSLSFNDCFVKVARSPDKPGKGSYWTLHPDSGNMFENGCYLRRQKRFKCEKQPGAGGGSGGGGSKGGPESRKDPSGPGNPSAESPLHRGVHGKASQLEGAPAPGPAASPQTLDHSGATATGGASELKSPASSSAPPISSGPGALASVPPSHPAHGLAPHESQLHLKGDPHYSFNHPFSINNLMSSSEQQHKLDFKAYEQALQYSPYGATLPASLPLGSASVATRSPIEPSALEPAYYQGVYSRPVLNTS
Notes: whole designed probe, mean of two concentrations, ends assumed
Constant ends, left off below: GTGAGCGGTGCCCATTGATGGGGAAC … TTTCACTGGGATCGTGGGGAC
Strand	normalised bound fraction [ratio]
TGCTACTGCCTGTCCCTGGAATTTGATAGAAACCTCCATGACTCTCCCTTTGTTTTCCAAATAGGCCTTTCAACTTTTAATTATTTCTCCCATGTTTACTTTTCTAAAACATTTGAGATCACATCTTATCATTTGTAATTCATTATCCCACTTGGTAGATGAAGTTGCTATTAAATACTGGATTGTAGACAAG	0.454
AGGTTGTCTGGACAAAAGTTGTATCTACCAAACTAAATGTGTACCAAGTGAGATATCCAAGGTCACTTAGCAAACATTCTGTTAGGGATAATGTAATCTTGAAAAGAAATTTAAGGATTTTTTTTTTTAAGACTGTTTTTGGAAACAACCAAGAGGAGAGACAAAAGGCACTTCAGTGAGGACTTTAAGCCAG	0.169
ATACAGGTTTTATAACATATGTAGTTAAGGTTTCAAAAGTGAGATTATGTCTCAACTAACTATAACTGAAATAGAAGAGTGTATCTATTTCAATGTAATCTAGATGACTGATAATGAGAAAAATGATCCTTATAAAGAATAGCAAATCATGATCCTAAGACAGTAAGTGTCAAAGCTGATGGGAGGATGCTAT	-0.0635
ATCTTCCCCCTCCTGTCTCCCTCACCAGCTCACCTTCCCGGGTTATTTGCAGATAGGAAAATAAATAAAGCCGGCATTCGTTAACCCTCTTCTGGCGCAAACTGCTGTTTGCTCTGGATGAATCATGGTCCTTTGGCGACGCCAGGCTCCGGGAGAGCAAAGCACCGTGTCAGGGCCATGATCCGGGGTGGCC	0.33
AAGAAAGAAATTTCCCATCCAGATTACAAAATTATTCCTGGTCAAAGGGGCCTTTATAAATGCAATTTCCTAATCCAATCAAAAGACCACAAAAGTAATCTGGGAATTTCTCTGCTTTGGTTTAAAATTGTTTGTTTAAAATTACATGTGTGTGTGTAGGTATATACACATATATAAATATATTATAGACACT	0.304

Study 3 — method: RNA Bind-n-Seq; molecule type: RNA; sample: in vitro; tested at: not given; reference: input RNA pool; reading: higher = stronger binding
Target: RING finger protein unkempt homolog, zinc fingers 1-6, GST-SBP tag (UNK, Homo sapiens, UniProt Q9C0B0, residues 30-357)
Sequence of UniProt Q9C0B0 (30-357, looked up): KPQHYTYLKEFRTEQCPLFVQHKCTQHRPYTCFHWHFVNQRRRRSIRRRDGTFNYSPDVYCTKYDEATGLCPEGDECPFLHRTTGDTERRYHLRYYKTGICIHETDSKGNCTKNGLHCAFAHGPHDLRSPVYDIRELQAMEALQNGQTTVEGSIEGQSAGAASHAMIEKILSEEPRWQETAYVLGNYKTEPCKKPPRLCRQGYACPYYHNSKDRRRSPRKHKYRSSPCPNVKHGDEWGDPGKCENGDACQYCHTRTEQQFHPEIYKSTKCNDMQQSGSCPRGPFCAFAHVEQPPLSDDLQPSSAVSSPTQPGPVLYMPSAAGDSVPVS
Notes: RNA with constant flanks, human and mouse sites, ends assumed
Constant ends, left off below: GGGAGUUCUACAGUCCGACGAUC … CAACAGAGGAUUGAGCAUCA
Strand	bound/input enrichment [ratio]
UUCUGAAGGCAGCUGCAAGGCCAUUUCAUUUACAUUAGGUUCCAUGGCACAGGAGCUUUGUUACUGUAAAACUAAGAAAAUGAAUUUGCACAUUGUAUAGAAGAGUUCUUUAGGAAGGUG	0.643
AUCUCUUUUCCCCUGUCCUGAUUUUAAAAGCCCCCUCCUUUUUUUUUUUUUUUUUCUUUUUUUAGGCAUAUGUAGUAAUAUUAGAAACAUUUAAUUUGGGAAACUUUGAUUCUUGAAAGA	33.9
UUUCAGGGAAAUAAUUUUCCAGUUGUUUUUGCUAUAUUCUGCAAAUAAAAAGUGUGUGUUUCCUUUUUUCCACCUAAACUUUGGUAGGAAACAGACUAAAGCAGACAAACAUUUCUUGUU	0.127
AUAACCAUCUAUCGGGAAGAGGGCAUUCUAGGAUUUUUCGCGGGUCUUGUUCCUCGCCUUCUAGGUGACAUCCUUUCUUUGUGGCUGUGUAACUCACUGGCCUACCUCGUCAAUACCUAU	0.241
UGUUACCAAAGGAAUCAGCGUGGUCCCCAGAUGCCUUUGAUAUUUCUCUAUGUGGUUGAUACUUGCAUAGAAGAUGAGGAUUUGCAGGCUCUGAAGGAGUCCAUGCAGAUGUCGUUGAGC	0.183
CUUAUGGGAAUGUGGGAUGGAGCUCACCUUACCUACUCUCUUAAGAUAAUGACUCAAAUUAAGCUUUUUGGACACCACUUUUGUGGGGAUACACAUACGCUGAUCUAGAAAUGAAAGGUG	0.762
GAGAACAUUAGGCUAAAUGAUUUCCGAGUUUCCAGCUAGUCCUAGAGUUCUAUAUUUCUACAUAGUUGAAUUAUUUUAUCAUGCUGUUGCUGGGGAAUAUGACUAACCCUUUUGAAGCUA	6.07
GCCAUUGGUCUUAUGGGUUAUAGGUUGAGUCCUCAAACAUUAACUACUAUUGUUAAACGUUAUAGCAAGAAUGGCAGAAUUUUCUUUGAUGAUUAUGUUGCUUGCUGUGUGAAGCUUCGA	0.168

Single results of other studies
Substance	partner	test	system	setting	quantity	result
BNIP1 (Homo sapiens, UniProt Q12981)	RINT1 (Homo sapiens, UniProt Q6NUQ1)	cross-linking MS	cell fractions	added: DSSO	cross-linked residues	K111 to K502
